# Assay results pooled from the literature.
# Numbered parts are unrelated; each lists some results of a single study. Changes are numbered by the printed parent chain.

# Set 1
# Target: Hepatocyte nuclear factor 3-alpha (Foxa1, Mus musculus, UniProt P35582, residues 1-468, full length assumed)
# Chain of UniProt P35582 (whole entry, looked up): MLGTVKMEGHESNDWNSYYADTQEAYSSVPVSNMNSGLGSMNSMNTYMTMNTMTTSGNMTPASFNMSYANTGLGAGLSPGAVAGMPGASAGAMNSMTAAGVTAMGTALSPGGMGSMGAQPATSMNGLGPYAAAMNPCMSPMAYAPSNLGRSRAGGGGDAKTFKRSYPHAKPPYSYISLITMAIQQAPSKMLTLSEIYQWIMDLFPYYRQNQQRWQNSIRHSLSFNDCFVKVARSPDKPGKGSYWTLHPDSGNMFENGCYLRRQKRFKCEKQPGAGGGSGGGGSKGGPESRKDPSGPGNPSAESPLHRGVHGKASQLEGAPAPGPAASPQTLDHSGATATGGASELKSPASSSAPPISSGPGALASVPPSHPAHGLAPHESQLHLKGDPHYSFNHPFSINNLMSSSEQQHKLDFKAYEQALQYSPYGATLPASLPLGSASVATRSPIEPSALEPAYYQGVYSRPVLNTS
# Method: EMSA with sequencing
# Form: double-stranded DNA, one strand shown
# Medium: in vitro
# Concentration: 10 and 20 nM
# Setting: whole designed probe, mean of two concentrations, ends assumed
# Baseline: negative control set to 0
# Direction: higher = stronger binding
# Shared flanks, not repeated: GTGAGCGGTGCCCATTGATGGGGAAC … TTTCACTGGGATCGTGGGGAC
Oligonucleotide,normalised bound fraction [ratio]
CCCTTGGAATGAAGGCAAATGAGGATTTAGAATACTTGCAGGTTGTTCTGTCAGTACTAATTTGAGTGCTAAAGTTCTATTTGCAAACCTAAGTAAACAGGAATGTAGACAGCTTGAACAAGATGAAATTGTGATATCGCCCAAAGGAACAAGCTGATCAGGGAAAGCTCAGCATGCATTTGAATCAAGAGCA,0.355
TCCTCAGGCTAAAAGCCAGCAAAAAGAATCACCTGGCCAAACATCCCCTTTCAGTCTGCTTTCCTTAGAATGGCCTCCCAGGGGAGCTCTCTGGGCAATCTAAGCAGATGACCTAGTTTGAAGGCCTGGAAAATTATCATGTGAGTCACTGGGACAACAGAGCAAAGTGCCAGGCCCCTGAGAAACTGTAAGC,-0.0418
TCTTGTCCTCCCCAGCCACTCTGCAAGGGAGTGGAAGGCGTCTACTACACGTCAGCATCCCTCTTCCTCGGGGCGGGGGTGCACCTTGGAAGTGCAATCTTGTCTTATTTATATATGAATGAAGTAATAGATAAGAAGCAATGCCCTCCCAGGAATCACACTGTGACTTCTACCCTTGGGGAGCGGGCAGAGT,0.0659
ATCCACGAACCTGGCCCTGTCTGGTAACCACAGTGAACCATCGCAAGATACAGCACTATGTGTAATGACTCACCCCAGTTGGGCTGGAACCAGTGTTGACACATCACATCCTCAGGGACACGGAAGTGTACTTGTTTTTGGAGAGGGACTAGACCTTCATCCTTGAGGTGAAGAAGATTTTCTCTCCAGGGTG,0.119
GTGAGGTCCTGAGGCCCAGGGAAGGGCCCAGGGAGCTCCAGGGACAGTGGAGAGAGGCAGAGACGGGCAGTGCTGGAGATAGAACAGTAAGAGTAATCTGGGATGGATAAACAGGGGCTGAGGGGTAAAGTCCAGAAAGGCCCAGCCAAAACCAGCAACCAAGTGGCCTCCAGTTACCCGGTAAGCACTTAGA,-0.0204
TGGGCTGTCCTTGGACAGGGCCATGGGATGCCACTTCCCTCTCTCTCCCTTTGGCAGAGAGCCCTCGGAAACAGGAGTTATTGAGAAACCAAAAGTAAACAGCTCAGCCTCTCCCCGGGGCCTGTGGAGCCTGTTGCCCCGGATGGATGGGGTTAGTGCCAGCAGCTGCTCAGATGATCTGTGGGGCATGTTC,0.29
AATCTGTGAGGATTTTTTGTTTAGAAATAAACAAATTACCCACTTCTCACTATCTTTTTGCACTAATACCTTGAAAAAATGTAAATTGGACAGTGTAAACATGCAAAATTGTTGGCATGTAGGAGAGAATTTTTCTACTTTTCTAAAGATTCAAGACTCGTTTTTGAGTCCTAAAAACAAACACATTAAGGAC,0.51
TGTATCCATCTGGGCAGTATCTTCTCTGGGCCTGGCCTGTCATAGGTGCTTCAGGTTTCCCCATTTGAACCAGATACCAGTCGGGTTACCGGAAGATTGCTTAAAATGAGTCATAGGCTTCCTGCTATTCCTGTGCTGCTTCCAGCTAGGACTGATCGAATCAGTCTGGATTTTCCTTGGGGTGATCCGCAGG,-0.09

# Set 2
# Variant: F5C
# Target: ABI1, truncated, D143A, DHFR fusion (Arabidopsis thaliana)
# Method: DHFR PCA, deep sequencing
# Medium: yeast
# Setting: methotrexate growth selection, single substitutions
# Baseline: wild-type fitted maximum
# Direction: higher = stronger binding
# Starting sequence: PYL1, truncated, DHFR fusion (Arabidopsis thaliana); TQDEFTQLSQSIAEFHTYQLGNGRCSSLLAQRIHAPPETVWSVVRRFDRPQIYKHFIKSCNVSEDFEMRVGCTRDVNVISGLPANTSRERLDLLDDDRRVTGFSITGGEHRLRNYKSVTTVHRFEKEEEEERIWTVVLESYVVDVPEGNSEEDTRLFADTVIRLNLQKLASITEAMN
setting,relative binding score [%]
added: (+)-ABA 0.39 µM,25.2
added: (+)-ABA 0.0091 µM,9.32
added: (+)-ABA 0.032 µM,11.5
added: (+)-ABA 1.4 µM,52
added: (+)-ABA 710 µM,106
added: (+)-ABA 200 µM,95

# Single results of other studies
# P1: viral docking peptide; KKVKRRLFETREL; partner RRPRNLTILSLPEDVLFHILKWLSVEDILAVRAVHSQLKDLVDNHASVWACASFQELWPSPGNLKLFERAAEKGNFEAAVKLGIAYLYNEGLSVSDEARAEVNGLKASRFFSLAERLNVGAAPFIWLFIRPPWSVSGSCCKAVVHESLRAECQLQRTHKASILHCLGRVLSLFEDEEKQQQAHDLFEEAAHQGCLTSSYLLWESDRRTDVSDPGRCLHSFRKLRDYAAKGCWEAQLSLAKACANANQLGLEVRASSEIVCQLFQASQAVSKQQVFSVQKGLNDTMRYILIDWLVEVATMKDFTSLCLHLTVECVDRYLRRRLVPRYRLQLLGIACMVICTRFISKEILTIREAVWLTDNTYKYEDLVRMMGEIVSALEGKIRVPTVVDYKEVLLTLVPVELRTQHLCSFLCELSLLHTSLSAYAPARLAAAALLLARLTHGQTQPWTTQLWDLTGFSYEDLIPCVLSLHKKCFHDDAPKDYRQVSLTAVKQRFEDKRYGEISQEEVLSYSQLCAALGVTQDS
Molecule,tested on,test,system,setting,scale,endpoint,value
"JUP (Homo sapiens, UniProt P14923)","DSP (Homo sapiens, UniProt P15924)",cross-linking MS,cells,added: BSPNO,,cross-linked residues,K487 to K94
P1 K1A,"CCNF, cyclin fold, Cln2 fusion (human)","yeast growth competition, sequencing",yeast,strong parent motif,"baseline: not given, higher = stronger binding",normalised enrichment score,7.55
